Measured values from different studies.
Organism: Klebsiella pneumoniae

SMILES	test	test system	conditions	MIC
C=CCO/N=C(\C(=O)N[C@@H]1C(=O)N(OS(=O)(=O)O)C1(C)C)c1nsc(N)n1	agar dilution	09-20, NDM-1		2 µg/mL
COc1ccc2ccc(O)c(/C=N/[C@H]3CCCC[C@H]3/N=C/c3c(O)cccc3OC)c2c1	bacterial growth, broth microdilution	carbapenem-resistant		> 40 µM
CN[C@@H]1[C@H](O)[C@H](NC)[C@H]2O[C@]3(O)[C@H](O[C@@H]2[C@H]1O)O[C@H](C)C[C@H]3NC(=O)Cc1ccccn1	microbial growth, broth dilution	ATCC33495		> 200 µg/mL
CC(C)(O/N=C(\C(=O)N[C@@H]1C(=O)N(OS(=O)(=O)O)C1(C)C)c1nsc(N)n1)C(=O)O	agar dilution	2146, NDM-1		> 64 µg/mL
CC[C@H](C)[C@H](NC(=O)[C@@H](CCCNC(=N)N)NC(=O)[C@H](CCCNC(=N)N)NC(=O)[C@@H]1CCCN1C(=O)[C@@H]1CCCN1C(=O)[C@H](CCCNC(=N)N)NC(=O)[C@@H]1CCCN1C(=O)[C@H](CCCNC(=N)N)NC(=O)[C@@H]1CCCN1C(=O)[C@H](CC(C)C)NC(=O)[C@H](Cc1ccc(O)cc1)NC(=O)[C@@H]1CCCN1C(=O)[C@H](Cc1ccccc1)NC(=O)[C@H](CCCCN)NC(=O)[C@H](CC(=O)O)NC(=O)[C@@H](N)C(C)C)C(=O)N[C@@H](Cc1ccc(O)cc1)C(=O)N[C@@H](CC(N)=O)C(=O)N[C@H](CCCNC(=N)N)C(N)=O	broth microdilution	DSM 681	18 h, 37 °C, 25% MHB2	16 µg/mL
CCCCCCCC(=O)N[C@@H](CCN)C(=O)N[C@H](C(=O)N[C@@H](CCN)C(=O)N[C@H]1CCNC(=O)[C@H]([C@@H](C)O)NC(=O)[C@H](CCN)NC(=O)[C@H](CCN)NC(=O)[C@H](CC(C)C)NC(=O)[C@@H](Cc2ccc(Br)cc2)NC(=O)[C@H](CCN)NC1=O)[C@@H](C)O	broth microdilution	ATCC 13883, colistin-susceptible		0.25 to 1 µg/mL
N=C(N)NCCC[C@@H]1NC(=O)[C@H](CCCNC(=N)N)NC(=O)[C@@H](CCCNC(=N)N)NC(=O)[C@H](C(c2ccccc2)c2ccccc2)NC(=O)[C@H](C(c2ccccc2)c2ccccc2)NC(=O)[C@H](C(c2ccccc2)c2ccccc2)NC(=O)[C@H](CCCNC(=N)N)NC1=O		1188718, multidrug-resistant		> 64 µg/mL
CC[C@H](C)[C@H](NC(=O)[C@@H](CCCNC(=N)N)NC(=O)[C@H](CCCNC(=N)N)NC(=O)[C@@H]1CCCN1C(=O)[C@@H]1CCCN1C(=O)[C@H](CCCNC(=N)N)NC(=O)[C@@H]1CCCN1C(=O)[C@H](CCCNC(=N)N)NC(=O)[C@@H]1CCCN1C(=O)[C@H](CCSC)NC(=O)[C@H](Cc1ccc(O)cc1)NC(=O)[C@@H]1CCCN1C(=O)[C@@H]1CCCN1C(=O)[C@H](CCCCN)NC(=O)[C@H](CC(=O)O)NC(=O)[C@@H](N)C(C)C)C(=O)N[C@@H](Cc1ccc(O)cc1)C(=O)N[C@@H](CC(N)=O)C(=O)N[C@H](CCCNC(=N)N)C(N)=O	broth microdilution	DSM 681	18 h, 37 °C, 25% MHB2	4 µg/mL
COc1ccc2ccc(O)c(/C=N/[C@H]3CCCC[C@H]3/N=C/c3cccc(C)c3O)c2c1	bacterial growth, broth microdilution	carbapenem-resistant		> 40 µM
C#CCOc1ccc(CN[C@@]2(C)C[C@H](O[C@H]3[C@H](Oc4c5cc6cc4Oc4ccc(cc4Cl)[C@@H](O)[C@@H](NC(=O)[C@@H](CC(C)C)NC)C(=O)N[C@@H](CC(N)=O)C(=O)N[C@H]6C(=O)N[C@H]4C(=O)N[C@H](C(=O)N[C@H](C(=O)O)c6cc(O)cc(O)c6-c6cc4ccc6O)[C@H](O)c4ccc(c(Cl)c4)O5)O[C@H](CO)[C@@H](O)[C@@H]3O)O[C@@H](C)[C@H]2O)cc1OC	broth microdilution	ATCC 27736, cation-adjusted Mueller-Hinton broth	18 to 20 h, 37 °C, 0.002% polysorbate 80	> 128 µg/mL
